Results collected from several papers.
Protocols differ between the studies behind these lines.
4'-phosphopantetheinyl transferase PptT: 4'-phosphopantetheinyl transferase PptT (Mycobacterium tuberculosis, UniProt O33336)
UniProt O33336, sequence (whole entry, looked up): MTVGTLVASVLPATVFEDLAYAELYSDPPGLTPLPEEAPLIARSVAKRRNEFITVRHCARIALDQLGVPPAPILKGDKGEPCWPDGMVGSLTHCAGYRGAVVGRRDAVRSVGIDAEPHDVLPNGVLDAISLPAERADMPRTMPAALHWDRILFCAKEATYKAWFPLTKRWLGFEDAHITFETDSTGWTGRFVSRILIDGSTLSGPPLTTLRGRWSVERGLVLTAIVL
UniProt Q9P289, sequence (whole entry, looked up): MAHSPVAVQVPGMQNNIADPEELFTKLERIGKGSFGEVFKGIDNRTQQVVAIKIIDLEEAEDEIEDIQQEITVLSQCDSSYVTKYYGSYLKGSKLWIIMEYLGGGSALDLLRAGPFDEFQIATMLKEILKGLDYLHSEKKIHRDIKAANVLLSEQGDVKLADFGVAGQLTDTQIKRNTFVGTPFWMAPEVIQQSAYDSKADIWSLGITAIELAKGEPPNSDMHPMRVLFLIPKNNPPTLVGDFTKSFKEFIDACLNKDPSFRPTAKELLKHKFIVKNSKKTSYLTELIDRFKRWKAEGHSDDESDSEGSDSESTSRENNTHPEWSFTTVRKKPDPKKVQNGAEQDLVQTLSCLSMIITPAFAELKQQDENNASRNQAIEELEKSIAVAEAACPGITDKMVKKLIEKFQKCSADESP
UniProt P25100, sequence (whole entry, looked up): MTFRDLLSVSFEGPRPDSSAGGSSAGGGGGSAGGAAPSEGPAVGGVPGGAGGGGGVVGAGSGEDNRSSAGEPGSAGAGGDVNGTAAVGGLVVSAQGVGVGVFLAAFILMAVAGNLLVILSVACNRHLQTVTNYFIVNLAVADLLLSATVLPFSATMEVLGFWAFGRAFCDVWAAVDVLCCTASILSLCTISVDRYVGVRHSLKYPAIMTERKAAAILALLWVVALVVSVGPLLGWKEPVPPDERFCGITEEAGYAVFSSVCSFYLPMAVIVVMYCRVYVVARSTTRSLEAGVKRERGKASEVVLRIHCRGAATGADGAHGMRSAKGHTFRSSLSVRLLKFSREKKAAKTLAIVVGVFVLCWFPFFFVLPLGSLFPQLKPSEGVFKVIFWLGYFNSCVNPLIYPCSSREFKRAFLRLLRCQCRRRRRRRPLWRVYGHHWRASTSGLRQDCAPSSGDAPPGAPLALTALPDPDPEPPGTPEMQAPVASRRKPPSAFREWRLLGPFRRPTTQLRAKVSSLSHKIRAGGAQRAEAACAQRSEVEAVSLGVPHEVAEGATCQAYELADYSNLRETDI
UniProt P27361, sequence (whole entry, looked up): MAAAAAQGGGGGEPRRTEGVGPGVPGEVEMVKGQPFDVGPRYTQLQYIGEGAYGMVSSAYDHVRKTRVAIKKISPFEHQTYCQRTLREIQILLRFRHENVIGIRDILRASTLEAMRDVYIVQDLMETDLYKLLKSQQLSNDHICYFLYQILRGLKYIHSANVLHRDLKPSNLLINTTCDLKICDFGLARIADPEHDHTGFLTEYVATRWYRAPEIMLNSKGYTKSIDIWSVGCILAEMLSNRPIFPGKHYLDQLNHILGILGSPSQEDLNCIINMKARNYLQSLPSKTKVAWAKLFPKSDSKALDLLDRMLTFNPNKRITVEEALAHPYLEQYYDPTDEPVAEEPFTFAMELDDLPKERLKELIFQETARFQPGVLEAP
UniProt P14616, sequence (whole entry, looked up): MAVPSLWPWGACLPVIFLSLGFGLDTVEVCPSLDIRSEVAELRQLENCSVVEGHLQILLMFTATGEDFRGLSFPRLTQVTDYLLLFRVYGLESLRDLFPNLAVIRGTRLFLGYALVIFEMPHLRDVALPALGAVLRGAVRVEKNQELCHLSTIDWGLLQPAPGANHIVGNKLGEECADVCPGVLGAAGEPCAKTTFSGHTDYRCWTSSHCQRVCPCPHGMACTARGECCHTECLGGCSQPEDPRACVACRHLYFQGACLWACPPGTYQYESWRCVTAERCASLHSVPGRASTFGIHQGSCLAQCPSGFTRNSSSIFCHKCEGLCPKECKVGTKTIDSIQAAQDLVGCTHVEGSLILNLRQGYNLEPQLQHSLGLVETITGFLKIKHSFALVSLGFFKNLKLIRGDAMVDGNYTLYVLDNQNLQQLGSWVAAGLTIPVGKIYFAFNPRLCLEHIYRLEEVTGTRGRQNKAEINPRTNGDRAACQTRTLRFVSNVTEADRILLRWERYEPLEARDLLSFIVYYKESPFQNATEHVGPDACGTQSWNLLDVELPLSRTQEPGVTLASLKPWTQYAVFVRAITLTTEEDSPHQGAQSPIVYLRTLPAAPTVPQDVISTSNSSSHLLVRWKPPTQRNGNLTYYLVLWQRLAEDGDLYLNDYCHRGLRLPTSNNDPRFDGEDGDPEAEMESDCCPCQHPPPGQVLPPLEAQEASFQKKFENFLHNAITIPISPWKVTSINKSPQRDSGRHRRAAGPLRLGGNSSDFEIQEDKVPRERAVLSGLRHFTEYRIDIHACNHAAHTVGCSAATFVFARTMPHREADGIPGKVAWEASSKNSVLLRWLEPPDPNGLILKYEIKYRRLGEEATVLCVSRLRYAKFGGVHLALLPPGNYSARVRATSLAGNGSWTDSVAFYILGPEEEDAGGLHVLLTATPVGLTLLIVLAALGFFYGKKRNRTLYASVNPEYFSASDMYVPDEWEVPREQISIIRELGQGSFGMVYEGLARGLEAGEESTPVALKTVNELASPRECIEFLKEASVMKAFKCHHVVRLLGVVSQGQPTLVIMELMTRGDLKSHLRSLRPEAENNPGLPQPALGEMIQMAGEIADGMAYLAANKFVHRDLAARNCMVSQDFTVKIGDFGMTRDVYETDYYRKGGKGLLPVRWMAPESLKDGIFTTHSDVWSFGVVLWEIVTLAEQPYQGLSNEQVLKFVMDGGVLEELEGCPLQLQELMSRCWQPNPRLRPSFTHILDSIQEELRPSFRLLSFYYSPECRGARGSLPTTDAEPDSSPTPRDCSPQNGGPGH
UniProt O75914, sequence (whole entry, looked up): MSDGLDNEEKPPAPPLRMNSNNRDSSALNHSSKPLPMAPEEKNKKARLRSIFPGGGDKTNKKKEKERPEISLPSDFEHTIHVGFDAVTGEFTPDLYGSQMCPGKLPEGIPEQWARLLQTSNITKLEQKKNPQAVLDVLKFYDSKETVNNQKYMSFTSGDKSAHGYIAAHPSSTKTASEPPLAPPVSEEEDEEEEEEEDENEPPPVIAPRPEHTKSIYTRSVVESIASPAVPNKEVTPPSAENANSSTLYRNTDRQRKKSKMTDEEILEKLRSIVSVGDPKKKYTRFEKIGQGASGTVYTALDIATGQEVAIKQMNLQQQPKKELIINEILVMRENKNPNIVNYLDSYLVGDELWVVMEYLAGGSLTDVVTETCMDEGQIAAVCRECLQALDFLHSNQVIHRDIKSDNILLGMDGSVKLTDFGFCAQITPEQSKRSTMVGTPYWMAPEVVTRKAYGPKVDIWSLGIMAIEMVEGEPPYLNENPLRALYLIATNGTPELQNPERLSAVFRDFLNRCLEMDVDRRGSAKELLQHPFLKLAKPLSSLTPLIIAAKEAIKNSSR
UniProt P20309, sequence (whole entry, looked up): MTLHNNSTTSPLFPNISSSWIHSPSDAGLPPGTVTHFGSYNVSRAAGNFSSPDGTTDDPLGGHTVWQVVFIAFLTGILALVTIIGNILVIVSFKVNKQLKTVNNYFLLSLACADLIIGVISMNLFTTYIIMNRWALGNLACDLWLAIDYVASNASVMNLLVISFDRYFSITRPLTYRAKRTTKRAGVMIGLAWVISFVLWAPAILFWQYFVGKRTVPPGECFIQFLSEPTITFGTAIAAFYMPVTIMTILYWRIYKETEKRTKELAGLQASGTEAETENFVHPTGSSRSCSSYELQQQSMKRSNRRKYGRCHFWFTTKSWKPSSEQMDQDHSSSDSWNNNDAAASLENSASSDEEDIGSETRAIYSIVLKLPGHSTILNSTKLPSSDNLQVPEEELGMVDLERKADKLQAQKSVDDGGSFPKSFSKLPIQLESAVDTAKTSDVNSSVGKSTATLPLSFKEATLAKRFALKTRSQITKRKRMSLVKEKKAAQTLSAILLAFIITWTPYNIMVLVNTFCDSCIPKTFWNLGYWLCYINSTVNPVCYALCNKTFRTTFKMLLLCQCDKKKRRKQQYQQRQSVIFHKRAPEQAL

Compound | target or system | read-out | mode | method | tested at | measurement | value
CN1CC[C@]2(C)c3cc(OC(=O)Nc4ccccc4)ccc3N(C)[C@H]12 | CHRM3 (Homo sapiens, UniProt P20309) | ligand displacement |  | radioligand | 10 µM | inhibition | 1.5%
[2H]c1c([2H])c([C@]2([2H])CCCN2C(=O)C(C)(C)Oc2ccc3cn[nH]c3c2)c([2H])c([2H])c1C([2H])([2H])[2H] | STK26 (Homo sapiens, UniProt Q9P289) | binding |  | competition with immobilised ligand | 1 µM | remaining binding | 99%
CNC1(c2ccccc2Cl)CCCCC1=O (racemic) | MAPK3 (Homo sapiens, UniProt P27361) | enzyme activity | inhibitor |  | 30 µM | inhibition | 1%
Cc1nn(C)cc1-c1nc2c(N3CCN(Cc4ccc(Cl)cc4)CC3)c(Cl)cnc2[nH]1 | PAK3 (Homo sapiens, UniProt O75914) | binding |  | competition with immobilised ligand | 1 µM | remaining binding | 32%
C#Cc1n[nH]c2c(-c3cn([C@@H](C)c4ccccn4)c(=O)[nH]c3=O)cc(F)cc12 | INSRR (Homo sapiens, UniProt P14616) | enzyme activity | inhibitor |  | 0.1 µM | inhibition | 7.1%
CC(=O)OCc1cc2[nH]c(=O)n(Cc3cccnc3)c(=O)c2cc1Cl | 4'-phosphopantetheinyl transferase PptT | enzyme activity | inhibitor | FP |  | IC50 | > 100 µM
CC(C)CC(=O)OC[C@H]1O[C@@](C#N)(c2ccc3c(N)ncnn23)[C@H](O)[C@@H]1O | ADRA1D (Homo sapiens, UniProt P25100) | cell-free assay |  |  | 20 µM | inhibition | 1%
COc1ncccc1-c1cnn2ccc(N3CCN(C(=O)OC(C)C)CC3)nc12 | PRKACB (Homo sapiens, UniProt P22694) | binding |  | competition with immobilised ligand | 1 µM | remaining binding | 100%
CC(C)c1ccc(Cn2c(=S)[nH]c3ccc(Cl)cc3c2=O)cn1 | 4'-phosphopantetheinyl transferase PptT | enzyme activity | inhibitor | FP |  | IC50 | 4.73 µM
Nc1ncc(-c2nc(N3CCOCC3)nc(N3CCOCC3)n2)c(C(F)F)n1 | PIK3CD (Homo sapiens, UniProt O00329) | binding |  | competition with immobilised ligand | 10 µM | remaining binding | 0%
CC(C)[C@H]1NC(=O)[C@H](Cc2ccccc2)NC(=O)CNC(=O)[C@@H](Cc2c[nH]c3ccccc23)NC(=O)[C@H](CCCCN)NC(=O)[C@@H](CCCN)NC1=O | Balamuthia mandrillaris | parasite growth |  | ATP luminescence |  | IC90 | > 16 µg/mL

For quick reference, copied from above:
Compound | target or system | read-out | mode | method | tested at | measurement | value
CNC1(c2ccccc2Cl)CCCCC1=O (racemic) | MAPK3 (Homo sapiens, UniProt P27361) | enzyme activity | inhibitor |  | 30 µM | inhibition | 1%
